# Results gathered from unrelated publications.
# Each line is one published result; not all experiments were run side by side. Values joined by “and” are separate records of one study, mostly repeats; a detail may differ. Numbers after ± are the reported error.
Compound,test system,conditions,half-life
Cc1ccc(S(=O)(=O)n2cc3c4c2C(=O)C(NCc2ccc(Cl)cc2)=CC4=NCC3)cc1,"Sprague-Dawley rat, plasma","intravenous, 5 mg/kg, two-compartment model",1.61 h and 1.12 h
CSc1ccccc1C(=O)NCCn1cc(C(=O)NCc2cccc(C)n2)c(=O)c2cc3c(cc21)OC(F)(F)O3,"Sprague-Dawley rat, male, plasma","intravenous, 5 mg/kg of parent compound",0.44 ± 0.09 h
CC[C@@](N)(c1cnc(C(F)(F)F)c(Cl)c1)c1c2ccn(C3CC3)c(=O)c2nn1C,"Sprague-Dawley rat, male","intravenous, 1 mg/kg",13 ± 2 h
Cc1nc(-c2cnc(NC(C)C)n(C)c2=O)ccc1Oc1ccnc(-c2cnn(C)c2)c1,"Sprague-Dawley rat, male, plasma","intravenous, 1 mg/kg, crossover study",14.2 h
CC(C)c1nc(N(C)S(C)(=O)=O)nc(-c2ccc(F)cc2)c1/C=C/[C@@H](O)C[C@@H](O)CC(=O)O,"Wistar albino rat, both sexes, plasma","oral, 20 mg/kg",8.4 h and 24.6 h and 41.8 h and 7.6 h and 15.5 h and 5.8 h and 10.5 h
N=C(N)NCCNC(=O)C1(Nc2ccccc2)CCN(Cc2ccccc2)CC1,"Sprague-Dawley rats, both sexes, plasma","intravenous, 2.5 mg/kg, mean of both sexes",0.9 h
Cc1cccc(CNC(=O)c2cn(CCNC(=O)c3ccccc3Sc3c([N+](=O)[O-])ncn3C)c3cc4c(cc3c2=O)OC(F)(F)O4)n1,"Sprague-Dawley rat, male, plasma","intramuscular, 3 mg/kg",6.6 ± 1.81 h
Cc1nc2cccc(OCC(C)(C)C(=O)NC(C)C)c2c(N)c1C(=O)O.Cc1nc2cccc(OCC(C)(C)C(=O)NC(C)C)c2c(N)c1C(=O)O.O=S(=O)(O)O,"male Sprague-Dawley rat, plasma","oral, 30 mg/kg",2.52 h
N=C(N)NCCC[C@H](NC(=O)[C@@H](NC(=O)[C@H](Cc1cscn1)NC(=O)CCc1ccccc1)C1CCCCC1)C(=O)c1nc2ccccc2s1,"Sprague-Dawley rat, male, plasma",85 µM,> 24 h
CC(C)[C@@H](CN1CC[C@@](C)(c2cccc(O)c2)[C@@H](C)C1)NC(=O)[C@H]1Cc2ccc(O)cc2CN1,"Sprague-Dawley rat, plasma","intraperitoneal, 10 mg/kg",29.6 h
Cc1cccc(CNC(=O)c2cn(CCNC(=O)c3ccccc3S)c3cc4c(cc3c2=O)OC(F)(F)O4)n1,"Sprague-Dawley rat, male, plasma","intravenous, 5 mg/kg of parent compound",~1 h
O=c1oc2c(O)c(O)cc3c(=O)oc4c(O)c(O)cc1c4c23,"rat, plasma","oral, 500 mg/kg extract, extract",2.51 ± 0.27 h
COC(=O)C1=CO[C@@H](O[C@@H]2O[C@H](CO)[C@@H](O)[C@H](O)[C@H]2O)[C@@H]2C(CO)=CC[C@H]12,"rat, plasma","oral, 500 mg/kg Eu extract, dosed as Eu extract",1.37 ± 0.33 h
CCn1cc(Cl)c2c(Cc3ccc(C(F)(F)F)nc3)n(C)nc2c1=O,"Sprague-Dawley rat, male","intravenous, 1 mg/kg",1 ± 0.2 h
Cc1nccn1CC1CCc2c(c3ccccc3n2C)C1=O (stereo not drawn),"male Sprague Dawley rat, plasma","iv bolus, 5 mg/kg, with: tariquidar 15 mg/kg iv",0.54 h

# Excerpt of the above:
Compound,test system,conditions,half-life
COC(=O)C1=CO[C@@H](O[C@@H]2O[C@H](CO)[C@@H](O)[C@H](O)[C@H]2O)[C@@H]2C(CO)=CC[C@H]12,"rat, plasma","oral, 500 mg/kg Eu extract, dosed as Eu extract",1.37 ± 0.33 h
